Results collected from several papers.
Numbered parts are unrelated; each lists some results of a single study. Positions count from the first letter of the parent shown.

Study 1 — technique: RNAcompete; molecule type: RNA; medium: in vitro; tested at: 20 nM; setting: 7-mer, probes averaged, single round; reference: mean of 7-mers; reading: higher = stronger binding
Target: PABPC1L2, full length, GST fusion (mouse, UniProt A0ABA7IW68)
Residues (chain): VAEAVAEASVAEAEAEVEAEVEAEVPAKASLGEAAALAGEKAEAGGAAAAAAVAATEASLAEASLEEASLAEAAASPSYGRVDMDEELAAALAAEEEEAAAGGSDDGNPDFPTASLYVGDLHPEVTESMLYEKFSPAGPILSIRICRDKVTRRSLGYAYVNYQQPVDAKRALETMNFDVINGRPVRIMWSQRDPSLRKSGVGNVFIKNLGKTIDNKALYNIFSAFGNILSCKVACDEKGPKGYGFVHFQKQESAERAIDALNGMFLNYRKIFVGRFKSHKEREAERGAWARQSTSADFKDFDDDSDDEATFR
With `GCGGUAU` the 7-mer Z-score was -0.0101.
`UAGCGCU` gave a 7-mer Z-score of -0.324.
The 7-mer Z-score of `UCCAGUC` is reported as -0.298.
`GGUGAGC` gave a 7-mer Z-score of -0.0953.
With `ACGUUAG` the 7-mer Z-score was -0.144.
For `GAGCGAG`, the 7-mer Z-score was 0.131.
For `CGACACC`, the 7-mer Z-score was -0.244.
`GUAGCCG` gave a 7-mer Z-score of -0.115.
With `GCGACCG` the 7-mer Z-score was 0.0877.
With `CUAUACC` the 7-mer Z-score was -0.255.
With `AGAGCAU` the 7-mer Z-score was 0.00436.
The 7-mer Z-score of `UACAAAC` is reported as 1.04.
For `CUUCUUG`, the 7-mer Z-score was -0.4.
The 7-mer Z-score of `UAUAUAC` is reported as -0.251.
`CAGACUC` gave a 7-mer Z-score of -0.141.
For `UGAUUCA`, the 7-mer Z-score was -0.157.
For `AGCAAUU`, the 7-mer Z-score was -0.00652.
`UAAGGCG` has a 7-mer Z-score of 0.0352.

Study 2 — target: CCNB2, cyclin fold, Cln2 fusion (human); technique: yeast growth competition, sequencing; medium: yeast; setting: weak parent motif; reference: not given; reading: higher = stronger binding
Parent: REPIN1 docking peptide (human); QSFRGWVALVLHL
For `QSFRGWVALVLAL [H12A]`, “normalised enrichment score” read 0.293.
`ASFRGWVALVLHL [Q1A]`: “normalised enrichment score” -0.124.
`QSFRGWVALVLHA [L13A]` — result for “normalised enrichment score”: -0.0176.
`QSFAGWVALVLHL [R4A]` — result for “normalised enrichment score”: -0.289.
`QSFRGWVALVAHL [L11A]`: “normalised enrichment score” 0.882.
`QAFRGWVALVLHL [S2A]`: “normalised enrichment score” 0.233.

Study 3 — technique: RNA Bind-n-Seq; molecule type: RNA; medium: in vitro; tested at: 365 nM; reference: no-protein control; reading: higher = stronger binding
Target: RNA binding protein fox-1 homolog 2, RRM domain, GST-SBP tag (RBFOX2, Homo sapiens, UniProt O43251-10, residues 100-194)
Setting: natural RNA segment, single round, ends assumed
Target sequence (chain): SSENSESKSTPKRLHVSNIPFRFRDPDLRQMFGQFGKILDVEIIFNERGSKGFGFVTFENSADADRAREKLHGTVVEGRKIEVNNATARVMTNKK
For `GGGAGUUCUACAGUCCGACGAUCCUUUGACCACGAAGAAACGGAGACUCAGAGAGUUUGUAUCCUAUGUGUAAGAUCACACAGUUGUCAGAGUCAGGAUUCAAAUCUAGUUCUAACUCCAAAGCUCUCCACACUGGAAUUCUCGGGUGCCAA`, “RBNS enrichment (R)” read 0.269.
Under “RBNS enrichment (R)”, `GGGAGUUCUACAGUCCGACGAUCCAGUAUAUGUUUUGGGAUUUUUCUGUAAAAUGGGUGUAAUUUUCCUAAUACAGGUAUGUAACAACAAAAGAAGUUGCCUGCAUGCCGGUCCAAAUUGUUCUGUAUAAAGAUGGAAUUCUCGGGUGCCAA` is recorded as 1.07.
Under “RBNS enrichment (R)”, `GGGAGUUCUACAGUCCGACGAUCGCUGUGUAAGAGAGACUGGUCCGUGGGACCAGCCACACACAUUACCUCUUCCACUUGAAAUGACUCUAAGGUUUUCAUUUUAUUCAAGCUUUGUGGGACAGACAAACUUUUGGAAUUCUCGGGUGCCAA` is recorded as 0.295.
`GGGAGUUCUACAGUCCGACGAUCAUGAUGGUACAAUUUAAAAUCUUAGUCAACUUCUGUAGAAAGUUUUCUCUAUGAAAGUAAAGCUGUUUGAAAAAUUAUUAUUUUUUUACAGAUCUUUCUAUAAAAAAUAAUGGAAUUCUCGGGUGCCAA` — result for “RBNS enrichment (R)”: 0.868.
`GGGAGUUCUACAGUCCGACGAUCUGCCUGUGACUCUUUGCACACUCUGUACUGAGUUUGGUGCUCCACCCAUUCACUGGGGUCAGGUGGCAGUUGACAUCUUGGUUAUAAGUAUGCAUGCAGGUAACAAGAGUUGGAAUUCUCGGGUGCCAA`: “RBNS enrichment (R)” 6.33.
`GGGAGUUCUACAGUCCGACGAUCAAAGUAUGGUCAUUGGUUGCAUAAUUUGAUUUGAGGCUUGUGGAGGAAAGGAACCAAGUGACUCUGAUGUUUACAAAGCACCUAUGAAACCCUGUACACACCUAGUUCAUUGGAAUUCUCGGGUGCCAA` — result for “RBNS enrichment (R)”: 0.901.
Under “RBNS enrichment (R)”, `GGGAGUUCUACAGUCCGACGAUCCAGUAGGUUGGGCUGCUCAUUUGCCUUCGGAUGACAUUAUGUAAAUAAACGAAUGUCACACCCACAGCUGGCUCUGUUACUCUCCUAAGCCGAGGGGUGGUGGGCCGGAGUGGAAUUCUCGGGUGCCAA` is recorded as 0.35.
For `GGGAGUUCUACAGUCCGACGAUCCUUCAUUCUACGUGGAAUACUAGAUCCCGUUUGUUAGCCUUCGUGACUCCGUCCUUGUCUCCUGUAAUAUACUGACCCUGUGUGCAGAGGCGUUUUUGUUCCCUUUUGUUUGGAAUUCUCGGGUGCCAA`, “RBNS enrichment (R)” read 0.722.
For `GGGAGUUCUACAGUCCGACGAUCAUCAGUGAGUCUUACAGAAAGAUAUGCUUCCAUAAUAUGAAAUAGAUUAUUCAAUAAUUGAGAAACUUUAUGUGUAAUCAUGAGAGUAUAAGAAUCUGGAUUAUCUAACAUGGAAUUCUCGGGUGCCAA`, “RBNS enrichment (R)” read 0.409.
For `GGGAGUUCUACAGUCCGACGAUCGUUCAAACUCUAUCUACCAGUUCAGAACAAGGCCAAGCAAUAACUGGAUAGCAGCUAAGGGGACAGACUCUGGAUGUGAGUCUUAGUUUAAAAAGGAAACUACAUGGAGAUGGAAUUCUCGGGUGCCAA`, “RBNS enrichment (R)” read 0.739.
For `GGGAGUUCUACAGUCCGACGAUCUACCUAAGCCCAUAAUCGAGCUAGUAUCUUGGAUGGUAUACAACCAAGAACCAGCUAAACAAUUAGAUACAGUUUAAUAUUUGUACCUCCAAAUCUAUCACUUCCUUCCUUGGAAUUCUCGGGUGCCAA`, “RBNS enrichment (R)” read 0.408.
Under “RBNS enrichment (R)”, `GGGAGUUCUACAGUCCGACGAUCGGUGUUGUGUAUGACUCUGUUGCCUUUUUGUCUGGAAACUAAAGGCUGGGGGUGGCAAAAUCAAUGACUUUUCUAACUAGGGAAGCCCUGUGGCCUCCAAAUUCACUGACUGGAAUUCUCGGGUGCCAA` is recorded as 0.407.

Study 4 — technique: protein binding microarray; molecule type: double-stranded DNA, one strand shown; medium: in vitro; tested at: not given; reference: not given; reading: higher = stronger binding
Target: Histone acetyltransferase KAT6A, winged helix 1, GST fusion (KAT6A, Homo sapiens, UniProt Q92794, residues 1-85)
Setting: 8-mer, flanks averaged, mean of 2 arrays, mostly near background
Residues (chain): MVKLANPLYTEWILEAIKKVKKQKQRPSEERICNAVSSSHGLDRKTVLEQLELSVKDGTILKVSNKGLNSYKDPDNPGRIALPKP
With `ACCATTCT` the E-score was -0.208.
The E-score of `ACTGAGCT` is reported as 0.0057.
`TAGCCACA` gave an E-score of -0.191.
The E-score of `ACGAACTG` is reported as -0.134.
With `CCCACTTA` the E-score was -0.152.
With `CAGACCAG` the E-score was -0.0356.
The E-score of `CGTGGTCA` is reported as -0.185.
With `GCAAGAAC` the E-score was -0.0935.
For `AAGCATGG`, the E-score was -0.0811.
`GTTTCGCA` has an E-score of -0.0741.
`TCTCCCCA` gave an E-score of -0.233.
For `AAGATCAA`, the E-score was -0.106.
`CCGGATCG` has an E-score of 0.086.

Repeated from above (study 4):
With `ACCATTCT` the E-score was -0.208.
The E-score of `ACTGAGCT` is reported as 0.0057.
`TAGCCACA` gave an E-score of -0.191.
The E-score of `ACGAACTG` is reported as -0.134.
With `CCCACTTA` the E-score was -0.152.
With `CAGACCAG` the E-score was -0.0356.
